Published values from different studies.
Each numbered part is a random draw from the data of one study; scales do not carry over between parts. Substitutions count along the parent as printed.

Set 1
Target: Prothrombin, mature alpha-thrombin (F2, Homo sapiens, UniProt P00734)
Technique: aptamer microarray, sandwich
Form: DNA with 2'F-ANA
Medium: in vitro
Tested at: 200 nM
Setting: whole 15-mer aptamer, many near background
Together with: Cy3 exosite-II aptamer, 400 nM
Direction: higher = stronger binding
Sequence: GGTTGGTGTGGTTGG
| Modification | mean fluorescence intensity [a.u.] |
| --- | --- |
| 2'F-ANA at 1 3 4 5 6 8 10 13 14 | 47.6 |
| 2'F-ANA at 6 7 11 12 13 15 | 571 |
| 2'F-ANA at 3 4 5 7 8 11 | 108 |
| 2'F-ANA at 3 5 6 11 15 | 106 |
| 2'F-ANA at 13 14 15 | 185 |
| 2'F-ANA at 1 3 7 12 13 15 | 521 |
| 2'F-ANA at 1 5 12 14 | 44.9 |
| 2'F-ANA at 1 3 4 5 10 13 14 | 44.5 |
| 2'F-ANA at 3 8 9 14 | 698 |
| 2'F-ANA at 2 3 4 5 10 11 12 | 62.2 |
| 2'F-ANA at 1 5 6 7 10 11 12 14 15 | 50.2 |
| 2'F-ANA at 3 7 8 9 11 13 14 | 587 |
| 2'F-ANA at 1 2 3 6 9 10 12 13 15 | 81.1 |
| 2'F-ANA at 1 2 5 7 10 12 13 14 | 46.1 |
| 2'F-ANA at 1 3 4 6 7 10 11 13 | 53.7 |
| 2'F-ANA at 3 4 5 8 11 13 | 79.8 |
| 2'F-ANA at 2 3 4 5 7 9 10 14 | 48.2 |
| 2'F-ANA at 2 7 8 14 15 | 204 |
| 2'F-ANA at 2 4 5 7 9 12 15 | 135 |
| 2'F-ANA at 3 6 7 8 9 15 | 983 |
| 2'F-ANA at 1 2 3 4 5 6 12 13 | 81.8 |
| 2'F-ANA at 2 4 5 7 8 11 13 14 15 | 48.8 |
| 2'F-ANA at 2 4 5 7 11 | 60 |

Set 2
Target: ABI1, truncated, D143A, DHFR fusion (Arabidopsis thaliana)
Technique: DHFR PCA, deep sequencing
Medium: yeast
Setting: methotrexate growth selection, single substitutions
Together with: (+)-ABA 200 µM
Baseline: wild-type fitted maximum
Direction: higher = stronger binding
Starting sequence: PYL1, truncated, DHFR fusion (Arabidopsis thaliana); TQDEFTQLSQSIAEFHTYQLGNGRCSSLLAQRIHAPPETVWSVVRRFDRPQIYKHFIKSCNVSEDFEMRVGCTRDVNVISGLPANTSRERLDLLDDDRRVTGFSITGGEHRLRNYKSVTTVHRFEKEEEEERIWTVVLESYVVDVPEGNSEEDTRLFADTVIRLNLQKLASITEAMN; partner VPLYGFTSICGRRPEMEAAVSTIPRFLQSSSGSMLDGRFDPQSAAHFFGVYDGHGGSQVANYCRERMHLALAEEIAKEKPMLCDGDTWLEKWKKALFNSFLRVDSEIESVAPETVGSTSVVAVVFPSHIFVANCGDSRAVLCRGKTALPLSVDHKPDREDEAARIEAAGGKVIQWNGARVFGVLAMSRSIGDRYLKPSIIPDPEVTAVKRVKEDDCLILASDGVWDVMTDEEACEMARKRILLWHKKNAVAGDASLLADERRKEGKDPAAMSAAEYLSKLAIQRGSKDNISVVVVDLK
| Substitution | relative binding score [%] |
| --- | --- |
| E89G | 9.71 |
| T160G | 71.6 |
| R69S | 98.8 |
| Q31K | 93.2 |
| E131P | 104 |
| E64R | 98 |
| R46L | 79.3 |
| R88D | 70.6 |
| D153T | 46.2 |
| E128L | 99.2 |
| T135Q | 0.436 |
| V76N | 66.2 |
| L112K | -9.68 |
| F47E | -0.252 |
| L29A | 69.3 |
| R123P | 104 |
| T39Y | 92.7 |

Set 3
Target: Histone acetyltransferase KAT6A, winged helix 2, GST fusion (KAT6A, Homo sapiens, UniProt Q92794, residues 85-181)
Technique: protein binding microarray
Form: double-stranded DNA, one strand shown
Medium: in vitro
Tested at: not given
Setting: 8-mer, flanks averaged, mean of 2 arrays, mostly near background
Baseline: not given
Direction: higher = stronger binding
Target sequence (chain): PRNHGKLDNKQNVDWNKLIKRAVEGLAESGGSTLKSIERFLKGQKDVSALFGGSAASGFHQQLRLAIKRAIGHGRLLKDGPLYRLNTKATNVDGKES
| Sequence | E-score |
| --- | --- |
| ACCCAGAG | -0.0211 |
| CGTCTTCA | 0.0334 |
| CTAATGAA | 0.226 |
| GAGGGGGC | 0.092 |
| ACTATGAG | -0.143 |
| CCGAACGA | 0.105 |
| CTTTGAAA | 0.1 |
| ATTCCATA | 0.00466 |
| CATGACGC | 0.0138 |
| GGGAGAAA | 0.00407 |
| TAACCGGA | -0.114 |
| GCCGCCTA | -0.0264 |
| GACGTATA | -0.25 |
| ACGACAAT | 0.0178 |
| CTGTCCAA | -0.0685 |
| AGGAGTCC | -0.11 |
| AGGTTAGG | -0.129 |
| AAACAAAG | -0.0625 |
| ACAAACTG | 0.0569 |
| CTGGGCGC | -0.13 |
| AGAGGCTA | -0.297 |
| ATCTAACA | -0.154 |
| CATTTAGG | -0.197 |
| GAAGTGGA | 0.0704 |
| GGAGAGAA | 0.0203 |

Set 4
Target: RNA binding protein fox-1 homolog 2, RRM domain, GST-SBP tag (RBFOX2, Homo sapiens, UniProt O43251-10, residues 100-194)
Technique: RNA Bind-n-Seq
Form: RNA
Medium: in vitro
Tested at: 365 nM
Setting: natural RNA segment, single round, ends assumed
Baseline: no-protein control
Direction: higher = stronger binding
Construct (chain): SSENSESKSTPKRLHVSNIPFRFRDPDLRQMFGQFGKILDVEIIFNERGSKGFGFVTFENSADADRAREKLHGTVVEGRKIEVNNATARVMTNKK
| Sequence | RBNS enrichment (R) |
| --- | --- |
| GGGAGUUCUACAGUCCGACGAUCAUUCCCACCCACGACUCACAGGCAUUCCUCCCACAGCCCUUUCAUUUCCUCCCCACCCCACUCCCCAAAUACAGAGGUCUGCUUUGAAGCGGAGACCAUUUCCAGGCCUUUGGAAUUCUCGGGUGCCAA | 1.1 |
| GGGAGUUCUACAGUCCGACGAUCCAUUUCUAUUUCUCCUCCAUGGGAGAAAAUAGAUAAGAGUAGAAACUGCAGGGAAAAUUAUUUGCAUAACAAUUCCUCUACUAACAAUCAGCUCCUUCCUGGAGACUGCCUGGAAUUCUCGGGUGCCAA | 0.328 |
| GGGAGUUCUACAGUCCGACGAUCGUACAUUUAAUGUACACUUUGCGGUAGAUUAAGGAAUAUACUGCAUAUUUCUUUUUUUAAACUCGGGAUAUUGAACUUCAGAAAACAAAUAUUAGCACAAAACACUAAAAUGGAAUUCUCGGGUGCCAA | 0.78 |
| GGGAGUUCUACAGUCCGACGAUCCCUAACUAAAGUACUUUCACAAACACUAACAUUCAGAAGGAUGUUGAGAAAGCAAGAUCUAAUCUGAAAUGGAUGACAUUAACAAGCUCCUUAAGCCCCUGAAGUUUUAUUGGAAUUCUCGGGUGCCAA | 0.376 |
| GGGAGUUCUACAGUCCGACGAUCUGGCUCGGGCAAGUGGAAGCACGUGGAGUCAGACAGACCUAAGUCCCAGGCCCAGAUUAGCCACUCGUUAGCUGUGUGACUGACUCUGGGCUAGUCACCUGGCCCCUGUGUGGAAUUCUCGGGUGCCAA | 0.956 |
| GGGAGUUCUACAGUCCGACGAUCAGUGAACGUUUCCAUCGUUAGAAUGUUUUCUCUGGCCAUUUGUGGAUUUAAUGCACUUGACGUGGAUUAAGUUAUUCUGAGCAUGUUACUGUAAUGAUUCUCAAAUUAACUGGAAUUCUCGGGUGCCAA | 1.13 |
| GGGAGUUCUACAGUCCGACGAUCGUGGGGGGGUAUCCAGAAUUGGUUGUAAAUACUUUGCAUAUUGUCUGAUUAAACACAAACAGACCUCAGAAUCUGAUCAACAGUUUAUUGAACAUCUACUGUGUGCUGGAUGGAAUUCUCGGGUGCCAA | 0.632 |
| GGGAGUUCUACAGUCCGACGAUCCUGGGCAGUUAGGUACCCUGGAAGGAGGGGAGGGAACCUCGAUGAAGCCAGUACAACAACAGAAGAGCCCCCCCAGCUGCCAGGGCACCCCAGACCCCCACUCUUCACUGUGGAAUUCUCGGGUGCCAA | 0.303 |
